Assay results from different studies.
Several values in a cell are separate wells, animals, samples, runs or records. Numbers after ± are the reported error.

CCN(Cc1nc2c(N)nc3cc(-c4cc[nH]n4)ccc3c2[nH]1)C(C)=O  mean fold change (immunohistochemistry, measured: MPO+ TANs; patients with advanced solid tumours, non-injected tumour lesions; dose not given, monotherapy; baseline: baseline): 2.2
CCCCCN1C[C@H](O)[C@@H](O)[C@H](O)[C@@H]1CO  number of increased sphingolipids (mouse Hexb-/-, plasma; 300 mg/kg/day; baseline: untreated Hexb-/- mice): 9
O=C1CCc2ccc(OCCCCN3CCN(c4cccc(Cl)c4Cl)CC3)cc2N1  hazard ratio (measured: stopping or switching; patients CYP2D6 extreme phenotypes; dose not given, 12 months; baseline: IM versus NM): 1.92
C[C@@H]1C[C@H]2O[C@@]3(O[C@@H]2C(C)(C)O)[C@H](O)[C@@]2(C)[C@@H]4CC[C@H]5C(C)(C)[C@@H](O[C@@H]6OC[C@@H](O)[C@H](O)[C@H]6O)CC[C@@]56C[C@@]46CC[C@]2(C)[C@@H]13  mRNA induction (agonist, qPCR, measured: Bsep; medaka larvae, water exposure; 10 µM, 48 h; baseline: maximal induction by reference agonist): 108%
Cc1cc(Nc2cc3ncccc3c(N[C@@H]3C[C@H]4CC[C@@H](C3)N4CCC#N)n2)n[nH]1  change in endoscopic subscore (moderate-severe ulcerative colitis patients; 20 mg, day 28, Modified Mayo; baseline: baseline, direction not given): -0.4
NC/C(=C\F)COc1cccc(Cn2c(=S)[nH]c(=O)c3[nH]cnc32)c1  leukocyte count (leukocyte infiltration; mouse, carrageenan air pouch, pouch exudate; 30 mg/kg, 4 h): 1.2e+07 and 420000 and 2e+07 and 840000 and 6.2e+06 and 3.2e+06
Cc1ccc(C(=O)OCc2ccc([C@@H](CN)C(=O)Nc3ccc4cnccc4c3)cc2)c(C)c1  IOP (tonometry; Macaca cyclopis, ocular normotensive; ocular, 0.02%, 4 h): 17.4 mmHg
Cc1ccc([C@@H]2O[C@H](CO)[C@@H](O)[C@H](O)[C@H]2O)cc1Cc1ccc(-c2ccc(F)cc2)s1  change in 24-h mean serum insulin (Japanese type 2 diabetes patients; 25 mg, day 16; baseline: day 0): -4 µU/mL
NCC(=O)Nc1cncc(-c2nn3c(=O)cc(N4CCNCC4)nc3s2)c1  inhibition of platelet aggregation (ADP-induced platelet aggregation, light transmission aggregometry; human stable CAD patients on aspirin, platelets ex vivo; 0.075 mg/kg, 120 min post dose, together with: 20 µM ADP; baseline: placebo difference): 28.1%
N#Cc1ccc2c(c1)[C@H]1CCCN(C(=O)c3ccc4[nH]cnc4c3)[C@H]1C2  HOMA-IR change (human, Phase II trial; 240 mg once daily, day 28, adjusted mean; baseline: baseline): 1.2 mmol/L × mU/L
C[C@]12CC[C@@H]3c4ccc(O)cc4CC[C@H]3[C@@H]1CC[C@@H]2O  mRNA level (RT-qPCR, measured: CO; Arabidopsis thaliana ING1:FLAG seedlings; dose not given, 4 h, unit not given; baseline: TUB2): 0.0055
COc1ccccc1[C@H](Cn1c(=O)n(C(C)(C)C(=O)O)c(=O)c2c(C)c(-c3ncco3)sc21)OC1CCOCC1  fractional hepatic DNL ([1-13C]acetate infusion, isotopomer analysis; overweight or obese healthy men, plasma VLDL-TG palmitate; oral, 200 mg single dose, -1 h relative to dose, fasted baseline): 6.5 % new palmitate
N#Cc1ccn2c(-c3ccncc3)c(-c3ccc(F)cc3)nc2c1  log2 fold change (kinase binding, competitor, MIB/MS competition, measured: ATG1; Candida albicans cell lysate; 10 µM; baseline: DMSO): -0.327
Cn1cc(-c2ccc(-c3cncc(Cl)c3N3CCC4(CCNC4=O)CC3)cc2)cn1  log2 fold change (COLO 205; gene expression, microarray, measured: FHL2 mRNA; concentration not given, 2 h; baseline: untreated cells): 2.28
Cc1cnc(N2CC3(CCOCC3)C2)c(C(=O)Nc2ccc(C(=O)N3CCc4cc(C(=O)Nc5c(C)cccc5F)sc4-c4ccccc43)cc2)c1  inhibition (measured: dsDNA; human RSV infection, nasal wash; dose not given, AUC, ITT-IS population; baseline: placebo): -9%
OC[C@H]1O[C@@H](c2ccc(Cl)c(Cc3ccc(O[C@H]4CCOC4)cc3)c2)[C@H](O)[C@@H](O)[C@@H]1O  insulin AUEC (healthy Korean men, blood; oral, dose not given, steady state OGTT): 100 ± 26.1 h·µU/mL
CC(=O)c1cnc2ccc(-c3cc(Cl)c(O)c(Cl)c3)nc2c1N[C@H]1CC[C@H](CN(C)C)CC1  RALF1-induced phosphorylation (phosphoproteomics, measured: AHA2; Arabidopsis thaliana seedlings; concentration not given, together with: RALF1): decreased
CN(C)C(=O)Oc1cccc([N+](C)(C)C)c1  train-of-four ratio (neuromuscular block reversal; rat; dose not given, 2 (unit not given), together with: cisatracurium; baseline: T1 twitch): 4.4
CC(C)[C@H](C(=O)Nc1ccc(C(=O)NO)cc1)c1ccccc1  tumour volume change (volumetric MRI; human, right C1 intradural meningioma; dose not given, day 64; baseline: baseline): 26%
c1ccc(-c2n[nH]cc2-c2ccnc3ccccc23)nc1  log2 fold change (kinase binding, competitor, MIB/MS competition, measured: PKH3; Candida albicans cell lysate; 1 µM; baseline: DMSO): 1.25
Oc1ccc(/C=C/c2cc(O)cc(O)c2)cc1  AST/ALT ratio (Mus musculus, chronic-plus-binge ethanol, plasma; dose not given): 1.84 and 1.8 and 2.15 and 1.7 and 1.77
COc1ncc(-c2nc3c(n2C(C)C)[C@H](c2ccc(Cl)cc2)N(c2cc(Cl)cn(C)c2=O)C3=O)c(OC)n1  best overall response (International Working Group criteria; human acute myeloid leukemia patients; oral, 45 mg, response TF, low-dose, recommended dose for expansion): 59.3%
CO[C@H]1CC[C@H](N2C(=O)CNc3ncc(-c4ccc(C(C)(C)O)nc4)nc32)CC1  pS6RP change from baseline (flow cytometry; stimulated B cells, human, blood; 60 mg single dose, 3 h, median; baseline: baseline): -76.6%
CN[C@@H]1COc2c(S(=O)(=O)NC(=O)Nc3c4c(cc5c3CCC5)CCC4)cnn2C1  inhibition (measured: IL-1β; human participants, whole blood ex vivo; 900 mg single dose, 72 h, together with: LPS/ATP; baseline: baseline): 27.4%
OC(CCN1CCCCC1)(c1ccccc1)C1CC2C=CC1C2 (stereo not drawn)  beta power, EEG, Fz Cz (resting-state EEG; healthy elderly humans; oral, 2 mg, eyes closed, LS mean): 5.9 µV²
NC(=O)c1cnc2[nH]ccc2c1N[C@@H]1[C@@H]2CC3C[C@H]1C[C@@](O)(C3)C2  change from baseline (flow cytometry, measured: CD8+ central memory T cells; Japanese healthy subjects, peripheral blood; oral, 100 mg twice daily, day 4): -0.12%
CN(C(=O)n1cnc(-c2ccc[n+]([O-])c2)c1)C1CCCCC1  anandamide level (mice, brain; oral, 1 mg/kg, 4 h): 98 ± 4 pmol/g
C[C@H]1C[C@H]2CSC(N)=N[C@@]2(c2nc(NC(=O)c3ccc(OC(F)F)cn3)cs2)CO1  percent change from baseline (measured: Aβx-40; healthy adults, plasma; 5 mg once daily, day 14; baseline: placebo): -40.6%
CN(C)C(=N)N=C(N)N  HbA1c change from baseline (ZDF rat; 100 mg/kg/day, 6 weeks; baseline: baseline): 3.09 ± 0.11 % points
O=C1Nc2cc3[nH]nc(-c4ccncc4)c3cc2CN1Cc1ccccc1  complete response, best response (RECIST v1.1; human, relapsed or refractory advanced solid tumours; intravenous, 9.6 mg/kg, pooled schedules): 0%
O=C(OC(C(F)(F)F)C(F)(F)F)N1CCN(Cc2cccc(Oc3ccccc3)c2)CC1  k4 (PET blocking study; rhesus monkey, brain CB; 0.3 mg/kg, compound pretreatment, together with: [18F]T-401 tracer): 0.261 min⁻¹
C=CCn1c(=O)c2cnc(Nc3ccc(N4CCN(C)CC4)cc3)nc2n1-c1ccc2c(n1)[C@@](O)(CC)CC2  tumour growth inhibition (HT-29 xenograft, BALB/c nude mice; oral, 60 mg/kg once daily x 22, day 21; baseline: vehicle): 15%
CCc1c(C)nc(-c2ccc(Cl)s2)nc1Nc1ccc(CC(=O)O)cc1  gonadal white adipose weight (C57BL/6J mouse, high-fat diet MASH model; intraperitoneal, 0.3 mg/kg daily, 60% fat diet for 12 weeks, dosed final four weeks; baseline: untreated): no effect
OC(CCN1CCCCC1)(c1ccccc1)C1CC2C=CC1C2 (stereo not drawn)  EC90 (Toxoplasma gondii; parasite growth; HFF, bradyzoite, glutamine-induced): 157 µM
CSCCNc1nc(SCCC(F)(F)F)nc2c1ncn2[C@@H]1O[C@H](COP(=O)(O)OP(=O)(O)C(Cl)(Cl)P(=O)(O)O)[C@@H](O)[C@H]1O  patients with IPA above 90% (platelet aggregation, light transmission aggregometry; human patients, platelet-rich plasma; dose not given, 2 h, together with: TRAP 5 µM): 5.1%
Cc1c(NC(=O)c2cccnc2)c(=O)n(-c2ccccc2)n1C  fractional shortening (echocardiography; Dmd C3333Y mouse; dose not given): 33.3% and 31.5% and 32.9% and 32.5% and 35.6%
Cn1cc(Nc2nccc(-c3ccc4c(c3)CN(C3COC3)CC[C@H]4NC(=O)c3cn(C(C)(C)C)nn3)n2)cn1  pathway activation z-score (measured: LPS/IL-1 inhibition of RXR; splenic B cells, mice; 30 mg/kg, IgD-activated in vivo; baseline: vehicle, direction not given): -1.07
Cc1cc(CN)cc(C)c1NC(=O)c1ccc(-c2cc(Cl)ccc2Cl)o1  EC50 (Toxoplasma gondii; parasite growth; HFF, bradyzoite, alkaline-induced): 11.5 µM
O=C(O)CNC(=O)Cc1ccccc1  sarcomere length (ventricular cardiomyocytes, C57BL/6 mouse; dose not given, 0.508 s): 1.63 µm
Cn1cc([C@H]2C[C@H]3CSC(N)=N[C@@]3(c3ccc(F)cc3F)CO2)cn1  Aβ40 level (measured: Aβx-40; Mus musculus wild-type, cerebrospinal fluid; subcutaneous, 10 mg/kg, 9 h): 1.33 ng/mL
C[C@H](Oc1ccc(Br)cc1-c1ccon1)C(=O)O  difference from placebo (MVRC latency; human, tibialis anterior muscle; 50 mg, SAD): 0.357 ms
COc1cc(Nc2ncc3c(n2)-c2ccc(Cl)cc2C(c2c(F)cccc2OC)=NC3)ccc1C(=O)O  relative tumour volume T/C (mouse, NB-1771 neuroblastoma xenograft; oral, 10.4 mg/kg, day 21; baseline: vehicle): 0.46
Cc1n[nH]c2ccc(-c3cc(OC[C@@H](N)Cc4ccccc4)cnc3-c3ccoc3)cc12  log2 fold change (kinase binding, competitor, MIB/MS competition, measured: PKH2; Candida albicans cell lysate; 1 µM; baseline: DMSO): -0.0865
CC(C)NCC(O)c1ccc(O)c(O)c1 (stereo not drawn)  sarcomere length (ventricular cardiomyocytes, C57BL/6 mouse; dose not given, 0.58 s): 1.6 µm
CCO[C@H]1CCN(Cc2c(OC)cc(C)c3[nH]ccc23)[C@H](c2ccc(C(=O)O)cc2)C1  PNH RBC clone size (PNH patients, blood; oral, 50 mg then 200 mg, week 12, mean percent change; baseline: baseline): 643%
COc1ccc(-c2cncc(N[C@@H](C)c3cccc(NC(=O)c4cncc(C)c4)c3)n2)cc1OC  fold change (measured: rno-miR-374-5p; rat SU5416/hypoxia model, lung; dose not given; baseline: SU5416/hypoxia vehicle): 0.803
COc1ccc(C2=N[C@@H](c3ccc(Cl)cc3)[C@@H](c3ccc(Cl)cc3)N2C(=O)N2CCNC(=O)C2)c(OC(C)C)c1  necrotic area (histology; Dmd C3333Y mice, triceps; dose not given): 11.6% and 9.7% and 11.2% and 10.8% and 12.1%
O=P(O)(O)C(Cl)(Cl)P(=O)(O)O  Iba1-positive area (Mus musculus, subarachnoid haemorrhage, hippocampal fissure; concentration not given, day 1; baseline: total area): 0.45% and 0.36% and 0.96%
N#Cc1ccc2c(-c3ccncc3)c(-c3ccc(F)cc3)nn2c1  log2 fold change (kinase binding, competitor, MIB/MS competition, measured: SHA3; Candida albicans cell lysate; 1 µM; baseline: DMSO): -0.478
Nc1nc2cc(-c3ccc4ncc(C(=O)N5CCOCC5)n4c3)ccc2o1  clinical benefit rate (RECIST v1.1; advanced solid tumour patients; dose not given, once-daily dosing): 40%
O=C(COc1ccc(Cl)cc1)NC12CC(c3nnc([C@H]4C[C@@H](OC(F)(F)F)C4)o3)(C1)C2  CHAC1 mRNA change (healthy human, PBMC; 100 mg once daily, day 14, 4 h post-dose, median, together with: sodium arsenite ex vivo; baseline: baseline): -74.8%
